Published values pooled from the literature.
Protocols differ between the studies behind these lines. “And” joins repeats or separate records; there may be more than shown. Numbers after ± are the reported error.

Structure (SMILES) | test | test system | setting | how to read | endpoint | result
CN([O-])C(=O)CN1CCNCCN(CC(=O)N(C)[O-])CC1.[89Zr+4] | radio-TLC | human serum | 2 days, run 1 | – | intact complex | 100%
O=C(O)CCCOc1ccc([18F])cc1-c1cc(-c2ccccc2C(F)(F)F)n(-c2ccccc2)n1 | OLINDA/EXM from mouse data, measured: Lower large intestine wall | human adult | – | – | absorbed dose | 15.2 µGy/MBq
O=C(Nc1cnccc1-c1ccc([18F])cc1)c1ccnc(NC(=O)C2CC2)c1 | ex vivo gamma counting | GSK-3β transgenic mice, late-stage, bone | intravenous, 1.26 MBq/animal, 120 min, mean, no P-gp inhibitor | – | SUV | 0.69
CN(Cc1ccccc1)C(=O)CN1CCN(CC(=O)[O-])CCN(Cc2cccc(C(=O)[O-])n2)CC1.[18F-].[Sc+3] | – | mouse, muscle | intravenous, 1 h | – | tracer uptake | 0.04 %ID/g
CCn1c(=O)c(-c2cc(NC(=O)Nc3ccccc3)c(F)cc2Br)cc2cnc(N)cc21 | – | human plasma | 4000 ng/mL, 1 weeks, 4 °C, high QC | – | mid-term stability accuracy | -11.6%
O=C(Nc1cnccc1-c1ccc([18F])nc1)c1ccnc(NC(=O)C2CC2)c1 | ex vivo gamma counting | GSK-3β transgenic mice, early-stage, brain stem | intravenous, 120 min | – | mean SUV | 0.024
CC[C@H](C)[C@H](NC(=O)[C@H](CCC(N)=O)NC(=O)[C@@H](NC(=O)[C@@H]1CCCN1[C@@H]1CN(C(=O)[C@H](CCCCN)NC(=O)[C@H](CC(N)=O)NC(=O)[C@@H](NC(=O)[C@@H](NC(=O)[C@H](CCC(N)=O)NC(=O)[C@@H](N)C(C)C)[C@@H](C)CC)[C@@H](C)CC)CC[C@H]1NS(=O)(=O)c1ccc(C)cc1)C(C)C)C(=O)N[C@H](C(=O)N[C@@H](Cc1ccc(O)cc1)C(=O)N[C@@H](CCCCN)C(N)=O)C(C)C | circular dichroism | methanol | 125 µM, 20 °C | – | random coil content | 37%
CN(Cc1ccccc1)C(=O)CN1CCN(CC(=O)[O-])CCN(CC(=O)[O-])CC1.[18F-].[Sc+3] | – | mouse, lung | intravenous, 1 h | – | tracer uptake | 0.18 %ID/g
CC(C)(O)c1ccc(N2Cc3c(ccnc3-c3ccc(F)cc3OCC(F)(F)F)C2=O)cc1 | – | male C57BL/6 mouse, plasma | oral, 10 mg/kg, 6 h | – | concentration | 2390 ng/mL
Cc1nn(-c2nc3c(F)cc(F)cc3s2)c(O)c1C(c1ccc(C(F)(F)F)cc1)c1c(C)nn(-c2nc3c(F)cc(F)cc3s2)c1O | – | ICR mouse, plasma | intravenous, 5 mg/kg | – | elimination rate constant | 0.159 h⁻¹ and 0.0783 h⁻¹ and 0.0515 h⁻¹
O=C1NC2(CC2)COc2ncc(F)cc2[C@H]2COCCN2c2ccn3ncc1c3n2 | bone marrow micronucleus test | NIH mice, male, bone marrow | oral, 20 mg/kg/day, 24 h | – | micronucleus rate | 0.8 ± 0.41 ‰
O=C([O-])CN1CCN(CC(=O)[O-])CCN(Cc2cccc(C(=O)[O-])n2)CC1.[177Lu+3] | – | BALB/c mouse, urine | intravenous, 1 h | – | uptake | 837 ± 218 %ID/g
CC(=O)N([O-])CCCCCNC(=O)CCC(=O)N([O-])CCCCCNC(=O)CCC(=O)N([O-])CCCCCN.[89Zr+4] | radio-TLC | aqueous buffer | 3 d, pH 7.2, 37 °C, 89Zr-labelled complex, with: NiCl2 10-fold excess | – | intact complex | 98.7 ± 1.3%
CN(Cc1ccccc1)C(=O)CN1CCN(CC(=O)[O-])CCN(CC(=O)N(C)Cc2ccccc2)CC1.[44Sc+3] | – | mouse, muscle | intravenous, 1 h | – | tracer uptake | 0.17 %ID/g
Cc1cc(-c2ccc(C(=O)[C@@H]3CCCC[C@H]3C(=O)Nc3cnn4c3C(=O)NCC4)cc2)[nH]n1 | – | human, urine | oral, 200 mg, 48-72 h | baseline: dose | radioactivity recovery per interval | 0.08% and 0.09% and 0.15% and 0.11% and 0.05%
Cc1ncsc1-c1ccc(CNC(=O)[C@@H]2C[C@@H](O)CN2C(=O)[C@@H](NC(=O)COCC(C)(COCCOCCOCCNC(=O)C[C@@H]2N=C(c3ccc(Cl)cc3)c3c(sc(C)c3C)-n3c(C)nnc32)COCCOCCOCCNC(=O)C[C@@H]2N=C(c3ccc(Cl)cc3)c3c(sc(C)c3C)-n3c(C)nnc32)C(C)(C)C)cc1 | – | male C57BL/6 mouse, plasma | subcutaneous, 5 mg/kg, 4 h, single dose | – | concentration | 3830 ng/mL
C/C(N)=N/C(=N\S(=O)(=O)c1ccc(C(F)(F)F)cc1)N1C[C@H](c2ccccc2)C(c2ccc(Cl)cc2)=N1 | – | cynomolgus monkey female, plasma | oral, 6 mg/kg | – | oral bioavailability | 41%
N=C(N)NCCC[C@@H]1NC(=O)[C@H](CO)NC(=O)[C@@H](NC(=O)[C@H](CO)NC(=O)[C@H](CO)NC(=O)[C@H](Cc2c[nH]c3ccccc23)NC(=O)CNC(=O)[C@H](CO)NC(=O)[C@@H](N)Cc2c[nH]c3ccccc23)CSSC[C@@H](C(=O)NCC(=O)O)NC(=O)[C@H](CO)NC1=O | – | patients, plasma | intravenous, 10 mg/kg, thrice weekly, geometric mean | – | AUC(0-80 min) | 854 ng·h/mL
C=C(NC(=O)c1csc(-c2nc3c(cc2O)-c2nc(cs2)C(=O)NC(C(C)O)C(=O)NC(=C(C)OC)c2nc(cs2)C(=O)NC2c4nc(cs4)C(=O)NC(COC(=O)c4c5c6c(cccc6n4O)COC(=O)C(OC4CC(C)(O)C(N(C)C)C(C)O4)C2OC5)c2nc-3cs2)n1)C(N)=O (centres unmarked) | – | Sprague-Dawley rats, male, plasma | intravenous infusion, 6 mg/kg, day 1, multiple dosing | – | apparent clearance CL/F | 66.9 mL/min/kg
CC[C@H](C)[C@@H]1NC(=O)[C@H](Cc2ccc(O)cc2)NC(=O)CCCSC[C@@H](C(=O)N(CC(=O)N[C@@H](CC(C)C)C(=O)NCC(N)=O)Cc2ccc(F)cc2)NC(=O)[C@H](CC(N)=O)NC(=O)[C@H](CCC(N)=O)NC1=O | – | healthy human, plasma | intranasal, 400 µg every 3 h, after last dose | – | Cmax | 0.211 ng/mL
N#C[C@@H]1CCCN1C(=O)CNC(=O)c1ccnc2ccc(OCCCN3CCN(C(=O)CCc4ccc5c(c4)CN4CCN6CC(=O)[O][68Ga-]([O]C(=O)C4)([O]5)[O]c4ccc(CCC(=O)N5CCN(CCCOc7ccc8nccc(C(=O)NCC(=O)N9CCC[C@H]9C#N)c8c7)CC5)cc4C6)CC3)cc12 | – | BALB/c nude mice, U-87 MG tumour | 120 min post-injection | baseline: tumour over liver | tumour-to-organ ratio | 10.3 ± 1.26
COc1cccc(OC)c1-c1cc(C(=O)NC2(C(=O)O)C3CC4CC(C3)CC2C4)nn1-c1ccc(C(=O)N(C)CCCN(C)CCCN(C)C(=O)[C@H](CCCCNC(=O)[C@H](CC(C)C)NC(=O)C2OC2C(=O)O)NC(=O)CN2CCN(CC(=O)[O-])CCN(CC(=O)[O-])CCN(CC(=O)[O-])CC2)cc1C(C)C.[177Lu+3] (mixture of isomers) | – | mouse, HT-29 xenograft, brain | 72 h post injection | – | tissue uptake | 0.014 %ID/g
[123I]c1ccc2nc(-c3ccc(-n4ccnn4)nc3)cn2c1 | – | male Wistar rat, muscle | intravenous, 4 MBq, 30 min | – | tracer uptake | 0.101 %ID/g

Repeated from above:
Structure (SMILES) | test | test system | setting | how to read | endpoint | result
O=C(O)CCCOc1ccc([18F])cc1-c1cc(-c2ccccc2C(F)(F)F)n(-c2ccccc2)n1 | OLINDA/EXM from mouse data, measured: Lower large intestine wall | human adult | – | – | absorbed dose | 15.2 µGy/MBq
O=C(Nc1cnccc1-c1ccc([18F])cc1)c1ccnc(NC(=O)C2CC2)c1 | ex vivo gamma counting | GSK-3β transgenic mice, late-stage, bone | intravenous, 1.26 MBq/animal, 120 min, mean, no P-gp inhibitor | – | SUV | 0.69
